# Experimental data gathered from unrelated publications.
# Each numbered part is a random draw from the data of one study; scales do not carry over between parts. Changes are numbered by the printed parent chain.

# Series 1
# Target: Sal-like protein 4, full length isoform B (SALL4, Homo sapiens, UniProt Q9UJQ4-2, residues 1-616)
# Technique: universal PBM
# Form: double-stranded DNA, one strand shown
# Medium: in vitro
# Tested at: not given
# Setting: 8-mer, flanks averaged, mean of replicates
# Direction: higher = stronger binding
# Construct (chain): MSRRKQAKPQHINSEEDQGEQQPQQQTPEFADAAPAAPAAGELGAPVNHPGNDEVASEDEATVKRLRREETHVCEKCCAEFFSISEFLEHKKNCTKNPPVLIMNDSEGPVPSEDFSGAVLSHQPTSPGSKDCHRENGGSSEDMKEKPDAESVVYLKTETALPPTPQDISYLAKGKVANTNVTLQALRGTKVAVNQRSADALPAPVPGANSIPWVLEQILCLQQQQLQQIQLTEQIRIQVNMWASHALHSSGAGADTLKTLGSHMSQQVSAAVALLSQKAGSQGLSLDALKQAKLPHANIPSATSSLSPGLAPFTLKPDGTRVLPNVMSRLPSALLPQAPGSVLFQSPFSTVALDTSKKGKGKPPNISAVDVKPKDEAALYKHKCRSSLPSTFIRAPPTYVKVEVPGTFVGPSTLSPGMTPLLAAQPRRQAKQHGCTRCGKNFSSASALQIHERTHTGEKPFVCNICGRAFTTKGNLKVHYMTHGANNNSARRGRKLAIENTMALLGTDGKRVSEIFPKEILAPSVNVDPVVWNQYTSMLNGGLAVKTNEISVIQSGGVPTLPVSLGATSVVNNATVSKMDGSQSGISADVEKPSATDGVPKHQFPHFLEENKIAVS
Sequence,E-score
GATGATTA,0.143
AGGGCCAA,-0.147
GCCGGAAA,-0.148
CCTCAAAC,-0.163
CCGCTAAC,-0.219
CCATCCTA,0.0569
CCGAGTAA,0.0685
AACCCAGC,-0.185
GGGAGGAA,-0.108
ATCCGCAG,-0.159
CTCAGGAA,-0.151
AGGCATAT,0.23
AGTGTTAC,0.144
AAAAGGAG,-0.00246
AGTACTTC,0.218
AAACTATA,0.263
CAGCACCG,-0.335

# Series 2
# Target: RNA binding protein fox-1 homolog 2, RRM domain, GST-SBP tag (RBFOX2, Homo sapiens, UniProt O43251-10, residues 100-194)
# Technique: RNA Bind-n-Seq
# Form: RNA
# Medium: in vitro
# Tested at: 365 nM
# Setting: natural RNA segment, single round, ends assumed
# Reference: no-protein control
# Direction: higher = stronger binding
# All sequences stand within: GGGAGUUCUACAGUCCGACGAUC … UGGAAUUCUCGGGUGCCAA
# Residues (chain): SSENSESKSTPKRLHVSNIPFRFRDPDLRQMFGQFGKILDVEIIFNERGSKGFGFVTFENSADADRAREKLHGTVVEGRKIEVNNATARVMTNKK
Sequence,RBNS enrichment (R)
CGACGUUCUUUGCACACUAUAACAGAACACUUUCCUACUUGCUUAGGCAGUUACUCUUCCGAGUUUAUACUCGCCUCUUCUUUAAGAGGAUUUCCUGAAAAGGGAACACC,0.436
CAUCACUGCCGUUGGUCUCUCAUGACUUAACUGGCUUCCCUCUGCUGCUGCCUUGGCUUCCUCCUAAUGCUCGUGCUCUCCUGUCCUUCUGAAGUUGCUCCUUGGCCAAA,1.22
CUUGGAACACCUUGGGGUCCCUCCACCCCACAGAACCUUCAACCCAGUGGGUCUGGGAUAUGGCUGCCCAGGAGACAGACCACUUGCCACGCUGUUGUAAAAACCCAAGU,0.489
GAAUGUGAUGGGACUUAAAAGAAGUGAACUGAGACAAUUCACUCUGGCUGUUUGAACAGCAGCGUUUCAUAGGAAGAGAAAAAAAGAUCAAUCUUGUAUUUUCUGACCAC,0.428
ACAAAAUGUAAUUCCGGUUAUUUAAGUCAUUUCUGUGAUUCUAUCAUGUACAGUUUCCAGAAUUGUCACUGUGCAUUCAAAAGUAAUGAAUCUAACAGACAUUUGAUUUA,0.349
CAUUCUUGUGUAUUUAAUAACAAAGGUGGCCCUCUUCAUGUCUGCUCCUCCCUACAGGCACUGUCUGUCUUCACAGGGCUUGGUCUUUCUGCUGCCACUUGUGAAAACCG,0.268
AACCUUUCGCCUAUGGCUUACAGUUCGACAUUUAAUUUAUUAGCGCUGCUCUGCACCCCUCCUGCCGGGAGGCUCUGUGUGGUUAUUGCCAGUUCUUUGUUUACUUUUCA,0.301
GGGACCACGUGUGCACGCAUGACCGUGUGGGUGGCGGCGUUUGCUGUGAACCACGCUCAGGCCACACAGAGACACAUACUUGGUUUCUGGGACUGAGACCCAGGCCUGGC,15.7
UUCUUUGAAACUCUACAUUUUCCACACGUCUGCUUCAUUUUCAAAAUGAAGGAUGUUUCCCGUAGGUUUUGUGCAGUCCAGUUGCCCUAAAGGACCAACCUGCCUUACGU,0.446
UAAAUGUUUGGUUUAUAUAUUUUCUUUAAAAAUCCUGGGCUGGCACAUUGACUGGGAAACCUGAGUGAGACCCAGCAACUGCUUCUCUCCCUUCUCUCUCCUGAGGUGAA,0.724
ACAUGUGACUCUUCUCCGUGACUCUAUAAAGACCUAGCAGAGCAUGUGAGCAUUCUCAAACAAGAGACUAACUGAUGCUCCUGCUGUUAAAAAGGCAGAACUAGGGAGGU,0.4
GGGAAACAUUUGCACUCUUUUAGUGCAUUUCCUCCUGCCUUUGCUUGUUCACUGCAGUCUUAAGAAAGAGGUAAAAGGCAAGCAAAGGAGAUGAAAUCUGUUCUGGGAAU,0.342

# Series 3
# Target: RING finger protein unkempt homolog, zinc fingers 1-6, GST-SBP tag (UNK, Homo sapiens, UniProt Q9C0B0, residues 30-357)
# Technique: RNA Bind-n-Seq
# Form: RNA
# Medium: in vitro
# Tested at: not given
# Setting: RNA with constant flanks, human and mouse sites, ends assumed
# Reference: input RNA pool
# Direction: higher = stronger binding
# All sequences stand within: GGGAGUUCUACAGUCCGACGAUC … CAACAGAGGAUUGAGCAUCA
# Residues (chain): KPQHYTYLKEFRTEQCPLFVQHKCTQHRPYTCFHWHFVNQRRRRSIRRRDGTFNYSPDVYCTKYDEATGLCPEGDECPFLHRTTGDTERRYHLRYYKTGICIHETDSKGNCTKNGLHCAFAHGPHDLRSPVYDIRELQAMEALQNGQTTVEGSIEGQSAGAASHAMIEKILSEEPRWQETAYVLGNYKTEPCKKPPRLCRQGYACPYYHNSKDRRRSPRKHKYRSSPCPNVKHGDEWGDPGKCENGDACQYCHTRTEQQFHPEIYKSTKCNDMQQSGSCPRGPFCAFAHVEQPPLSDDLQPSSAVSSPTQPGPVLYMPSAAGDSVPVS
Sequence,bound/input enrichment
ACAGAGGGUAACAGAAGUAAAGUAGACAGUAAUAAAGCGCACACUGAUAAUAAGGCCGAAUUUCCAAGCUAUUUGUUGGGGGGGAGGUCUGGUGCAUUGAAAAAUUUCGUCAUUCCAAAA,0.524 ratio
UAUGUGGAGACAGAACUGAUAUUCGCACUGGCUAAAACAAACCGCCUUGCAGAGUUAGAAGAAUUUAUCAAUGGACCAAAUAAUGCUCAUAUCCAACAAGUUGGUGACCGUUGUUAUGAU,9.82 ratio
GCUGCUCAGAUAAACGGUAAAACAGAAUCUAGUUCUGUGGUUCGAACCAGAAGCAACCGAGUGGUUGUAGAUCCAGUUGUCACUGAGCAACCAUCUACUUCUUCAGCUGCAAAGACUUUU,0.132 ratio
GAAUGGCUGGAAAGCCACCAGGAUGCGGACAUUGAAGACUUUAAAGCCAAAAAGAAGGAACUAGAAGAAAUUGUUCAGCCAAUUAUCAGCAAACUCUAUGGAAGUGGAGGCCCUCCCCCA,0.427 ratio
GGAGCUUUACCCCCUGACCUCAGCUACAUCGUUCGAGCUAGGCAUGGUGGUGAGGACUACGUAUUUUCCCUGCUCACUGGCUACUGUGAGCCCCCCACUGGGGUGUCAUUGCGAGAAGGC,0.0792 ratio
GGAGACUUAGAGCUGCAGCCCAUCCGGAGCUACGAAAUCACCAGUCUGGUCCGUGCACUCUUCCGGCUGUCCUCUGCCAUCAACCGUAGAUUUGCAGGCCAGAUGGCAGCUCUGUGCUCC,0.138 ratio
CUUUAAUGUCUUUUUCCUGCUUAUAGGGAAAGUAUAAGUUUGGUUAAAAUGUCAUGUUUGUUGUCUUUCCAAAAACCUUUAUAAUUACAGAGGGCCUUCUUCAAUACUGCUGGUGUUGGA,0.295 ratio
GUAGAUAAGGUCAUGGAUCAAAAAGAACAUAAAUUGAAUGGGAAGGUGAUUGAUCCUAAAAGGGCCAAAGCCAUGAAAACAAAAGAGCCGGUUAAAAAAAUUUUUGUUGGUGGCCUUUCU,0.544 ratio
GAUGAGUUGCUCCUGAUUGGUCAUUGGGUUUGGGUGAGGCCUGGAGGCUUCAGAGGUGAAUUUAUGCUUGGGAAGCCUGAUCCCAAACCUGAAGGGAAGGGACUUGGAUCUCCUUAUAUU,0.313 ratio
CCCCCAACUGUUCACCUUUAGAAAUGUCCAGACAAGGAGCCUGGUCUGCUUAUAUCAUGGUUAGGGAUGAUAGUCCGGACUAGCCAGGGUCAAAGUUGCUUUUAAUGUAGAGCCCAACCC,1.28 ratio
CUGGGACCUGAAGGACUUGAACUUAUUGAGAAACUCCUCCAGAACAGAAUUACAAUUGUGGAUAGAUUUCUUAAUUCUUCAAAUGAUCAUAGGUUUCAGGCUCUUCAAGACAAUUGUAAA,0.257 ratio

# Series 4
# Target: Histone acetyltransferase KAT6A, winged helix 1, GST fusion (KAT6A, Homo sapiens, UniProt Q92794, residues 1-85)
# Technique: protein binding microarray
# Form: double-stranded DNA, one strand shown
# Medium: in vitro
# Tested at: not given
# Setting: 8-mer, flanks averaged, mean of 2 arrays, mostly near background
# Reference: not given
# Direction: higher = stronger binding
# Construct (chain): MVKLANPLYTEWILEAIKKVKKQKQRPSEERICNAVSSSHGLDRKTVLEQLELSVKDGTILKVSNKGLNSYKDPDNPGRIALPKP
Sequence,E-score
AATTAACC,0.115
CACAGCTG,-0.241
GTGCATTA,-0.0322
ACGACAGC,-0.118
ACGGAGAT,0.057
GATAATGC,0.00402
AAGTCTCG,-0.0191
ACGTGACG,0.0828
AGCCACCA,-0.222
CCGCCAGG,0.121
CCTCTTCA,-0.154
GAGATTGC,0.0903
CTAAAAGA,-0.249
CTTCTCGC,0.111
AACCATAG,-0.0136
AGTACTTG,-0.0368
AATTGAAG,-0.0797
ACAATAGG,0.0654
AGTACCCC,0.0471
AGAACATC,-0.162
GGCGCCAC,0.322
AGGAGTAA,-0.0371

# Series 5
# Target: ABI1, truncated, D143A, DHFR fusion (Arabidopsis thaliana)
# Technique: DHFR PCA, deep sequencing
# Medium: yeast
# Setting: methotrexate growth selection, single substitutions
# Added: (+)-ABA 4.8 µM
# Reference: wild-type fitted maximum
# Direction: higher = stronger binding
# Parent: PYL1, truncated, DHFR fusion (Arabidopsis thaliana); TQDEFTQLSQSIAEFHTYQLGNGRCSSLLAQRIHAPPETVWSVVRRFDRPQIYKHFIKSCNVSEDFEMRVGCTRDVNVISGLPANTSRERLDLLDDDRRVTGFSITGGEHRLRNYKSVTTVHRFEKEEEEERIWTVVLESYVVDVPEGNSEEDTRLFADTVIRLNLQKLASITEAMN; partner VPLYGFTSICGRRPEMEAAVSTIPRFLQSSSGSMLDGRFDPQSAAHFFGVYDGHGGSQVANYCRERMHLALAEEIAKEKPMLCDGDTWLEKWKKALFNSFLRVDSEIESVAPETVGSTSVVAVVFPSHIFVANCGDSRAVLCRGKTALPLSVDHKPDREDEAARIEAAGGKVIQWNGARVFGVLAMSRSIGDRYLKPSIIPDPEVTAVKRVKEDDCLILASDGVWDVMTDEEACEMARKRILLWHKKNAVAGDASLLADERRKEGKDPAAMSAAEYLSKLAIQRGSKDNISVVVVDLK
Change,relative binding score [%]
E147A,71.6
Y115G,-6.73
Y115M,-13.4
L138P,-12.6
N149M,19
L91I,-7.87
E139H,26
D159H,-6.26
E109C,36
S9Y,58.9
C60W,7.74
R132H,86.1
L28Y,5
F103T,-20.2
S42Q,78.7
S117H,-7.61
T86L,32.3
R45S,24.1
R69A,71.1
E14V,22.2
G21V,72.8
L164Y,78
S9H,65.9
S104L,-2.62
R98Y,8.97

# Repeated from above (series 4):
Sequence,E-score
AGGAGTAA,-0.0371
CACAGCTG,-0.241
AATTGAAG,-0.0797
AATTAACC,0.115
GATAATGC,0.00402
ACGGAGAT,0.057
ACAATAGG,0.0654
CTAAAAGA,-0.249
AGTACCCC,0.0471
AAGTCTCG,-0.0191
AGCCACCA,-0.222
CCTCTTCA,-0.154
GGCGCCAC,0.322
